Assay results pooled from the literature.
A part holds a random share of what one study measured. Positions count from the first letter of the parent shown.

Block 1
Target: CCNA1, cyclin fold, Cln2 fusion (human)
Method: yeast growth competition, sequencing
Matrix: yeast
Notes: weak parent motif
Relative to: not given
Direction: higher = stronger binding
Starting sequence: WEE1 docking peptide (human); HKTFRKLRLFDTP; partner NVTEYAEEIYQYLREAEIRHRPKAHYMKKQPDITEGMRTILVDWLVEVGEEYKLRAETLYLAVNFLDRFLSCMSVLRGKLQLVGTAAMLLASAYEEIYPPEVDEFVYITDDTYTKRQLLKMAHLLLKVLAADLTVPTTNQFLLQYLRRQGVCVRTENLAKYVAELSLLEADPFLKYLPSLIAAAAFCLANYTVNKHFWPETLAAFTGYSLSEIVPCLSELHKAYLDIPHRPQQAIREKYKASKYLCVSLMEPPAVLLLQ
Substitution | normalised enrichment score
HMTFRKLRLFDTP [K2M] | 0.0039
HKTWRKLRLFDTP [F4W] | 0.727
HKAFRKLRLFDTP [T3A] | 0.0129
HKTFRKLRLPDTP [F10P] | 0.486
FKTFRKLRLFDTP [H1F] | 0.0647
HKTFIKLRLFDTP [R5I] | -0.144
HKTFRKLRLNDTP [F10N] | 0.00978
HKTFRKDRLFDTP [L7D] | -0.0569
DKTFRKLRLFDTP [H1D] | 0.496

Block 2
Target: Interferon regulatory factor 7, full length, phosphomimetic (IRF7, Homo sapiens, UniProt Q92985, residues 1-503, S101K/S471D/S472D/S475D/S476D/S477D/S483D/S484D/S487D)
Method: protein-binding microarray
Molecule type: double-stranded DNA, one strand shown
Matrix: in vitro
Tested at: 250 nM
Notes: 60-bp whole probe
Added: salmon DNA 0.4 mg/ml
Relative to: random background probes
Direction: higher = stronger binding
Shared flanks, not repeated: GCCTAGCAC … GTCTTGATTCGCTTGACGCTGCTG
Construct (chain): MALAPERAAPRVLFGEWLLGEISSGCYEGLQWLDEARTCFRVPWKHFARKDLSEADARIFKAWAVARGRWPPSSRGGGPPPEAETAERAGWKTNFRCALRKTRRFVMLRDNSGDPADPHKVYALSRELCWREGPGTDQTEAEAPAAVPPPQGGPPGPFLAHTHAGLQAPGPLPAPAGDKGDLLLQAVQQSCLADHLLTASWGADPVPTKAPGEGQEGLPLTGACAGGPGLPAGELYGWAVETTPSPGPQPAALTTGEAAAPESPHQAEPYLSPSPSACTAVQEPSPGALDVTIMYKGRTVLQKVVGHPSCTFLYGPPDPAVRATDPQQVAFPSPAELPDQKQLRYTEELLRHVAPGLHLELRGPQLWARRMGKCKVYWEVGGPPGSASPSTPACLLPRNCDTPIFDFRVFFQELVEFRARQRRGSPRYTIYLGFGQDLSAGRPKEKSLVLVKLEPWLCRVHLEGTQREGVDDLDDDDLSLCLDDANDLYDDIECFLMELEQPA
Oligonucleotide | log fluorescence
GACGATTTCGGGTTTCCAGACGTGCTA | 2 z-score
TTAGGACGGGGTCTCGGTTAGTGCTAG | 0.427 z-score
AGTATGTTCCCTATTTAAGAGTGCTAG | 3 z-score
TTCTGAACCATTTTGGTTTTGTGCTAG | -0.14 z-score
GACGGTCTGCTTCTCCTGACGTGCTAG | -0.347 z-score
TTAGGACTGGGACTGAGTTAGTGCTAG | -0.0708 z-score
TCACATCTAGTTCTGCTACTGTGCTAG | 0.272 z-score

Block 3
Target: Ras GTPase-activating protein-binding protein 1, RRM domain (G3BP1, Homo sapiens, UniProt Q13283)
Sequence of UniProt Q13283 (whole entry, looked up): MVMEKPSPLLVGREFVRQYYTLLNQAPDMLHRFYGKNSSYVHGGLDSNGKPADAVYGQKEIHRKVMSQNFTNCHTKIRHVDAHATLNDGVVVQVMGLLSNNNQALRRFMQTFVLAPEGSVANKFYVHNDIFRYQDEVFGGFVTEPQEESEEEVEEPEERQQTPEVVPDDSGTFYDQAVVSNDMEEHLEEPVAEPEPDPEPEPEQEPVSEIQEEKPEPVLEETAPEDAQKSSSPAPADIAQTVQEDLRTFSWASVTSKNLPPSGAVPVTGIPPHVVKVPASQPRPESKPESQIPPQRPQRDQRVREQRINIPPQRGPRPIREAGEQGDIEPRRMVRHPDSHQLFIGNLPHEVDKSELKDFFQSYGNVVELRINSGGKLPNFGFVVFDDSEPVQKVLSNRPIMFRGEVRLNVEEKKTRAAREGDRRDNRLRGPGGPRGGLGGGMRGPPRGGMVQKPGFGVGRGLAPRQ
Method: RNA Bind-n-Seq
Molecule type: RNA
Matrix: in vitro
Tested at: 1 µM
Notes: whole 134-nt RNA, ends assumed
Added: 150 mM KCl
Relative to: input library
Direction: higher = stronger binding
Oligonucleotide | log2 enrichment
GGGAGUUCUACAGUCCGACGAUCUGGGAGGUGGAUUUUGUUUAUUUUUUUAGCUCAUUUCCAGGGGUGGGAAUUUUUUUUUAAUAUGUGUCAUGAAUCAAGUUGUUUUUGAAAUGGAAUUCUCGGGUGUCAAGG | 1.19
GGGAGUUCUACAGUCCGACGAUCGGGCCCUGGUGGCAUGCGGGGAGGAAGAGGUGGCCUCAUGGAUCGUGGUGGUCCCGGUGGAAUGUUCAGAGGUGGCCGUGGUGGAGACAGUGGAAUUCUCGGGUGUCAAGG | 0.822
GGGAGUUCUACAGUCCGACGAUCUCCUGUGCUACACAUCGUAUGUACCGAAUCGGGUUUUUGGGAAAAAAAGGGUUUUUGGGAAAGUAUUAUGUUACGCCGUUCGGAUCUGCAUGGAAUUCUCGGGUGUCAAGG | -0.157
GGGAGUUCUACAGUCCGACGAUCUUAUAAUUGAUGAUCAUCCUGAAGUAACAGUAAUUGAAGAUCCCCAGUCAAAUUUGAAUGAUGAUGGUUUUACUGAAGUGGUAUCCAAAAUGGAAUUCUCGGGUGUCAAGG | -0.123
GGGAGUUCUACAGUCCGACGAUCUAACUUUAGAGGAGGAUCUGAUGGAUAUGGCAGUGGACGUGGAUUUGGGGAUGGCUAUAAUGGGUAUGGAGGAGGACCUGGAGGAGGCAAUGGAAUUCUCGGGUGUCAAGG | -0.414
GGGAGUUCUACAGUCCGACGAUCAGUCCUGUGCUACACAUCGUAUGUACCGAAUCAAACCCAAACCCCCAAAUUUUUAAAAAAGUAUUAUGUUACGCCGUUCGGAUCUGCACUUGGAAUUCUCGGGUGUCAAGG | -0.0997

Single results of other studies
Molecule | target | test | system | conditions | scale | measurement | result
PhoQ, residues 284 288 289 292 302 303 AQGLTV | PhoP, residues 12 14 15 18 19 DLLYY (Escherichia coli, UniProt P23836) | Sort-seq, refers to: YFP reporter | E. coli | PhoQ-PhoP variant library, added: 10 µM Mg2+ | relative to: high Mg2+ state, higher = stronger signaling | fold induction | 1.17

For quick reference, copied from above (block 3):
Oligonucleotide | log2 enrichment
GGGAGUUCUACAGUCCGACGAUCGGGCCCUGGUGGCAUGCGGGGAGGAAGAGGUGGCCUCAUGGAUCGUGGUGGUCCCGGUGGAAUGUUCAGAGGUGGCCGUGGUGGAGACAGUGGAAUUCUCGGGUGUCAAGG | 0.822
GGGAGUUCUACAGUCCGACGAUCUCCUGUGCUACACAUCGUAUGUACCGAAUCGGGUUUUUGGGAAAAAAAGGGUUUUUGGGAAAGUAUUAUGUUACGCCGUUCGGAUCUGCAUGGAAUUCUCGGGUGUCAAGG | -0.157
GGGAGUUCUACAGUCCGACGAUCUUAUAAUUGAUGAUCAUCCUGAAGUAACAGUAAUUGAAGAUCCCCAGUCAAAUUUGAAUGAUGAUGGUUUUACUGAAGUGGUAUCCAAAAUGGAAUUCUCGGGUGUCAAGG | -0.123
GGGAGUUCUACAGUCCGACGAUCUAACUUUAGAGGAGGAUCUGAUGGAUAUGGCAGUGGACGUGGAUUUGGGGAUGGCUAUAAUGGGUAUGGAGGAGGACCUGGAGGAGGCAAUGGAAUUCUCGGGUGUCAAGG | -0.414
